Measured values from different studies.
Numbered parts are unrelated; each lists some results of a single study. Positions count from the first letter of the parent shown.

Sample 1
Target: ABI1, truncated, D143A, DHFR fusion (Arabidopsis thaliana)
Method: DHFR PCA, deep sequencing
Medium: yeast
Setting: methotrexate growth selection, single substitutions
With: (+)-ABA 0 µM
Relative to: wild-type fitted maximum
Direction: higher = stronger binding
Parent: PYL1, truncated, DHFR fusion (Arabidopsis thaliana); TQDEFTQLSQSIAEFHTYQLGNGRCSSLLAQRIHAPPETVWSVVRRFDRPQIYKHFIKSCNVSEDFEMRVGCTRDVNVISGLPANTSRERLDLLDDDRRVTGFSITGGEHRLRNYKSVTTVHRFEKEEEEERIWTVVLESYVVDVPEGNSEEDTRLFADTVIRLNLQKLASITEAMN
| Substitution | relative binding score |
| --- | --- |
| V44A | -1.08% |
| N149Q | 61% |
| R99L | 46.1% |
| T6C | 24.6% |
| A35C | 2.3% |
| G108N | -4.98% |
| A158P | -8.3% |
| V100C | 17.6% |
| L164K | 3.68% |
| R98L | 8.97% |
| S26K | 3.2% |
| Q7K | 16% |
| C60P | -3.06% |
| E151S | 19.5% |

Sample 2
Target: Interferon regulatory factor 3, full length, phosphomimetic (IRF3, Homo sapiens, UniProt Q14653, residues 1-427, S386D/S396D/S398D/S402D/T404D/S405D)
Method: protein-binding microarray
Molecule type: double-stranded DNA, one strand shown
Medium: in vitro
Tested at: 2540 nM top
Setting: 60-bp whole probe
With: salmon DNA 0.4 mg/ml
Relative to: random background probes
Direction: higher = stronger binding
Shared flanks, not repeated: GCCTAGCAC … GTCTTGATTCGCTTGACGCTGCTG
Target sequence (chain): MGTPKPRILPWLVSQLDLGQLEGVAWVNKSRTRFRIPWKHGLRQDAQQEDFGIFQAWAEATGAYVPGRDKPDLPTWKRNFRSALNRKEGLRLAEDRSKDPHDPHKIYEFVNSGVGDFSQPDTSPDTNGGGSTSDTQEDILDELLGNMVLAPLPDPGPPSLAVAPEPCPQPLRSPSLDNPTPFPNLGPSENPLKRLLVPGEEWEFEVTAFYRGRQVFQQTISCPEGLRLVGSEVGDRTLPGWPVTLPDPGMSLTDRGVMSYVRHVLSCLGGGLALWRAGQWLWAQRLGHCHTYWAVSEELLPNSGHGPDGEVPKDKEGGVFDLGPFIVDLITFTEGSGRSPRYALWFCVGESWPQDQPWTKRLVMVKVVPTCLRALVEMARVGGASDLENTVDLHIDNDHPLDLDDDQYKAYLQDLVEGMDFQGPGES
| Sequence | fitted relative affinity |
| --- | --- |
| TTAGAACTGGGGTATCGGTTAGTGCTA | 0.215 z-score |
| TTACGTTTCCTTCTCCTTTAGTGCTAG | 8.3 z-score |
| ATAGGACTGCTTTTCCTTTAGTGCTAG | 0.978 z-score |
| AGAGGCGGGAGGGGGCGGGGGTGCTAG | -0.374 z-score |
| TTACGTTTCGGGTTTCGGTTAGTGCTA | 5.47 z-score |
| TGGTATTTTTTTCTAATTGAGTGCTAG | 1.03 z-score |
| TCAGTGCTCATCTGTCATACTGTGCTA | 0.23 z-score |
| TTAGGTTTCGGTATCGGTCAGTGCTAG | 8.3 z-score |
| ATAGGTCTCGGACTGGGTTAGTGCTAG | -0.21 z-score |
| TTAGATACCGGGTATCGATTAGTGCTA | 0.444 z-score |
| AGCACTTTGGCATGTCTTGACGTGCTA | -0.8 z-score |
| GACGGTTTCCTTTTCCTGCCGTGCTAG | 10.6 z-score |
| GACGGTTTCGACACCGGGGACGTGCTA | 2.75 z-score |
| TCAATCTTATGATATATAACTGTGCTA | 0.417 z-score |
| TTAGGACTGGTGTATCGGTTAGTGCTA | 0.432 z-score |
| TGAGATATCGGGTATCGATTAGTGCTA | 0.0627 z-score |
| GACAGTATCCTTTTCCTGACGTGCTAG | 8.42 z-score |
| TTAGGTTTCGGAATCGGTTAGTGCTAG | 7.84 z-score |
| TTAGGTTTCCGGACTGGGTTAGTGCTA | 4.19 z-score |
| AGACTTTTTTCAGACCTGTCGTGCTAG | 0.748 z-score |
| ACCACTTTTATTTTCAGTATGTGCTAG | 2.63 z-score |
| TCAATTTGGCATATCTAACTGTGCTAG | 0.472 z-score |
| GGTCTTCTGGGCTGTTTGATCGTGCTA | -0.0247 z-score |
| TTAGCTTTCGACTTTCGGTTAGTGCTA | 2.15 z-score |
| GTTTTTTTTTAATTGAAATCGTGCTAG | 1.83 z-score |

Sample 3
Target: Ras GTPase-activating protein-binding protein 1, RRM domain (G3BP1, Homo sapiens, UniProt Q13283)
UniProt Q13283, sequence (whole entry, looked up): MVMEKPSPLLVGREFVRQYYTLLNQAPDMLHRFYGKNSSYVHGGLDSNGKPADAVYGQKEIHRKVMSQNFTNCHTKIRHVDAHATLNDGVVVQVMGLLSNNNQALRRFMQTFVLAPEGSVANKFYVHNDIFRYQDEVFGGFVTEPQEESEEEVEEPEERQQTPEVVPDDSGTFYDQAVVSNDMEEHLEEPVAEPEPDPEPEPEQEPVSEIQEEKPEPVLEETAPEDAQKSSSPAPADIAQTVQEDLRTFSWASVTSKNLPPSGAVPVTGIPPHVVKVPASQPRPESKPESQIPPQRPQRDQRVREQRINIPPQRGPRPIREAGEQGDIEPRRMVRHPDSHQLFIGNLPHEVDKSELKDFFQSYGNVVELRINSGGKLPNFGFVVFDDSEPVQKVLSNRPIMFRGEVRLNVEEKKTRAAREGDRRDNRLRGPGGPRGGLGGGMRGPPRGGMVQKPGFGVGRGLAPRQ
Method: RNA Bind-n-Seq
Molecule type: RNA
Medium: in vitro
Tested at: 1 µM
Setting: whole 134-nt RNA, ends assumed
With: 150 mM KCl
Relative to: input library
Direction: higher = stronger binding
Shared flanks, not repeated: GGGAGUUCUACAGUCCGACGAUC … UGGAAUUCUCGGGUGUCAAGG
| Sequence | log2 enrichment |
| --- | --- |
| UGGCCCUGGUGGCAUGCGGGGAGGAAGAGGUGGCCUCAUGGAUCGUGGUGGUCCCGGAGGAAUGUUCAGAGGUGGCCGUGGUGGAGACAG | 0.806 |
| CUGUGCUACACAUCGUAUGUACCGAAUCGGAAAAAAAGGGGAAAAAAAGGGGAAAAAAAGGGAAAGUAUUAUGUUACGCCGUUCGGAUCU | 0.183 |
| CAAGUCCUGUGCUACACAUCGUAUGUACCGAAUCGGUUUGGAAAGGUUUUUUUGGAAAGUAUUAUGUUACGCCGUUCGGAUCUGCACUUC | -0.282 |
| CUCAAGUCCUGUGCUACACAUCGUAUGUACCGAAUCGGCGGGGCGGGGCGGGGAAAGUAUUAUGUUACGCCGUUCGGAUCUGCACUUCCA | 0.149 |
| CUGUGCUACACAUCGUAUGUACCGAAUCGGGGUUUUUUUGGGGAAAAAAAGGGGAAAGGGGAAAGUAUUAUGUUACGCCGUUCGGAUCUG | 0.266 |
| GCAGGAAGUAAAAACAAAUGGAAAUGCUUCGGAUAGUGGCAGGGGUGGGGGUUGCUAAGGAAAGGGUGGGAUGGGAGUGGGUAAAAAAUU | 1.17 |
| UCAAGUCCUGUGCUACACAUCGUAUGUACCGAAUCGGGAAAGGAAAGGAAAGGGAAAGUAUUAUGUUACGCCGUUCGGAUCUGCACUUCC | -0.169 |
| AAGUCCUGUGCUACACAUCGUAUGUACCGAAUCGGGCCCGGGGCCCGGGGCCCGGGAAAGUAUUAUGUUACGCCGUUCGGAUCUGCACUU | -1.26 |

Sample 4
Target: RNA binding protein fox-1 homolog 2, RRM domain, GST-SBP tag (RBFOX2, Homo sapiens, UniProt O43251-10, residues 100-194)
Method: RNA Bind-n-Seq
Molecule type: RNA
Medium: in vitro
Tested at: 365 nM
Setting: natural RNA segment, single round, ends assumed
Relative to: no-protein control
Direction: higher = stronger binding
Shared flanks, not repeated: GGGAGUUCUACAGUCCGACGAUC … UGGAAUUCUCGGGUGCCAA
Target sequence (chain): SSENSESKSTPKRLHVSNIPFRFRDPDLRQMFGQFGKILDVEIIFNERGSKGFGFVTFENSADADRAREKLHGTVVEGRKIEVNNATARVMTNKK
| Sequence | RBNS enrichment (R) |
| --- | --- |
| CCAGUACUCCUGCUCUCCGGUGCCACCUCACCUUCUUUGGCUUCUUCCCUCUUGCCUCCUUCUGUUCUUUCUGCUCUCCCCUCUUUUCCCUCCUCCUCACUUCCCUCUGG | 1.13 |
| GAACAGGAAUGAAAGGAAACCUUCCCUUAACUCUUUCUGCUUCCCAUAGCAGGUCUGGUUCCUGCUCCCCGCCUAGGACAGGAGCUGUCUGGAGCUCCACCUUUGCAAAG | 0.432 |
| UCAGUGACCUCCAAGAUUUAGCCACUGGGGACACAUUUUAGUUUCUGGAACACAGCCUGAUCUACAAGUACCAGCAUCGUUCUUUUGCCAGCCAGUGAUUUUCUUUUAAA | 0.466 |
| AUGUGCGUCCAUGCUUGAGUGAGCAAGCCAGCGUCCUUGUCCUCCUGCAAUGCCUUUGGGAAGCUCAGGGGAAUGCUCCCCAAGCUUGUUUCUGACACUAGAAUGCAACA | 0.672 |
| CUGCUCCUCAGUAGCAGGGCCUGGCCAGGCCCCUGCUGUUCUCAGCCUCAGUUUGCCAUCUAUGAAAUGAGGUGGACCCCUCUCCAUAGCCCUUGGGUGCCAGCUCAGUG | 0.223 |
| AACAGCAGUUGCAUUGAUUUUGAAAACAAACCCCCUUGUUAUCUGAACAUGUUUUCUUCAGGAACAACCAGAGGUAUCACAAACACUGUUACUCAUCUACUGGCUCAGAC | 0.376 |
| AUGUCCUUUGGAAACCUGGUCACCUGGUGAAAACCCUUGGGAUUCUUCCCUGGGCAUGACUGAUGACAAUUUCCAUUUCAUCAGUUUGUUUUGUUUUCCUUUUUCUUUAA | 0.379 |
| AGGGAACUAGAUAACAUACUUCUUACUUGUCUGUACAGUACCUUGUUGCAGAUGGGUGAUAUAUAAUGGUAAUAGAAUAGCACAGCCAGACUUGCUUCCUGCAUGGUAGG | 2.19 |
| UGUUGCAAUUUCUGCUUCCACCUAUUUUCCAAGCAUUUUACUUAAGAAGGAUACUGUGUAGUUGAACUAAGGCUCUUUCCAGGCCGGGCUUGCAUCCUGUUGUGUAUUCU | 0.82 |
| AACAUCCCUGUACCCCUUGACAGUUAUAAGCAUUUCUGCGUUAAACUUGAAGAUUCCAGAGAUUCCCCACGACCUAAUGAUCUAAGAAUGCAGAUUGGAUUCUUUGAUGU | 0.899 |
| CAGUAGUUAGAUAUCACCUACAUAUACAUUUUUCCAUUUUAUGCUCUAUGAUCUGAAGAACAAAAAAAAAAGCUUUUUGACUUGUAUAAGAUUUAUGUCUACUGUAAACA | 0.854 |
| GAUUCAGGGACAAGUUGAAAGGCACUGAAACUGUGUUGAAGCCAGAUGAGUAAUUAUAAGUAACUGUAAUCGGUAGGGAGACAUGUUUUAACCUGGAUAUGUUAGAAAAG | 0.352 |

For quick reference, copied from above (sample 1):
| Substitution | relative binding score |
| --- | --- |
| V44A | -1.08% |
| N149Q | 61% |
| R99L | 46.1% |
| T6C | 24.6% |
| A35C | 2.3% |
| G108N | -4.98% |
| A158P | -8.3% |
